Values quoted from earlier work as cited in several papers.
Lines come from different studies, so protocols differ. Several values in a cell are separate wells, animals, samples, runs or records. Numbers after ± are the reported error.
ribH: 6,7-dimethyl-8-ribityllumazine synthase (ribH, Mycobacterium tuberculosis, UniProt P9WHE9)
gag-pol protease: Gag-Pol polyprotein, protease (gag-pol, Human immunodeficiency virus type 1 group M subtype B, UniProt P04585)

O=c1ncccn1[C@H]1C[C@H](O)[C@@H](CO)O1 has a Ki of 2.9 µM (cytidine deaminase; inhibitor).
With CC(C)C(=O)Nc1c(NC[C@H](O)[C@H](O)[C@H](O)CO)[nH]c(=O)[nH]c1=O the Ki was 42 ± 16 µM (ribH; inhibitor; pH 7.0).
The Ki of CC[C@H](C)[C@H](NC(=O)[C@H](CC(=O)O)NC(=O)[C@H](CC(C)C)NC(=O)[C@H](CC(C)C)NC(=O)[C@H](CCCCN)NC(=O)[C@H](CCCNC(=N)N)NC(=O)[C@H](CC(N)=O)NC(=O)[C@H](CO)NC(=O)[C@H](Cc1c[nH]cn1)NC(=O)[C@H](C)NC(=O)[C@H](CCC(N)=O)NC(=O)[C@H](CCC(N)=O)NC(=O)[C@H](C)NC(=O)[C@H](CC(C)C)NC(=O)[C@H](CCC(N)=O)NC(=O)[C@H](CC(=O)O)NC(=O)[C@H](C)NC(=O)[C@H](CCCCN)NC(=O)[C@@H](NC(=O)[C@H](CCSC)NC(=O)[C@H](CCC(=O)O)NC(=O)[C@H](CC(C)C)NC(=O)[C@@H](NC(=O)[C@H](CCC(=O)O)NC(=O)[C@H](CCCNC(=N)N)NC(=O)[C@H](CC(C)C)NC(=O)[C@H](CC(C)C)NC(=O)[C@H](Cc1c[nH]cn1)NC(=O)[C@H](Cc1ccccc1)NC(=O)[C@@H](NC(=O)[C@H](CC(C)C)NC(=O)[C@H](CC(=O)O)NC(=O)[C@H](CC(C)C)NC(=O)[C@H](CO)NC(=O)[C@@H](NC(=O)[C@@H]1CCCN1C(=O)[C@@H]1CCCN1C(=O)[C@H](CCC(=O)O)NC(=O)[C@H](CCC(N)=O)NC(=O)[C@@H](N)CO)[C@@H](C)CC)[C@@H](C)O)C(C)C)[C@@H](C)O)C(=O)N[C@@H](C)C(N)=O is reported as ~0.002 µM (CRF1 receptor).
For CC(=N)NCc1cccc(CN)c1, the Ki was 2 µM (human nNOS).
C[C@@H]1COCCN1c1nc(-c2cnc(N)nc2)nc2c1C[C@@H]1COCCN21 has a Ki of 0.536 ± 0.022 µM (PIK3CA (Homo sapiens, UniProt P42336); binding, TR-FRET displacement).
O=c1[nH]c(NC[C@H](O)[C@H](O)[C@H](O)CO)c([N+](=O)[O-])c(=O)[nH]1 gave a Ki of 13 ± 1 µM (ribH; inhibitor; pH 7.0).
O=C(O)c1cc([N+](=O)[O-])ccc1NCCCc1ccccc1 gave a Ki of ~20 µM (CFTR (Homo sapiens, UniProt P13569, E1371S); pore block; -120 mV, no MOPS−).
COc1cc2c(cc1OC)[C@@H]1C[C@H](O)[C@@H](CC(C)C)CN1CC2 gave a Ki of 0.058 µg/mL (dopamine D2 receptor; binding).
The Ki of NS(=O)(=O)c1ccc(CCn2c(SCC(=O)N/N=C/c3ccccc3)nc3ccccc3c2=O)cc1 is reported as 0.0526 µM (CA2 (Homo sapiens, UniProt P00918); enzyme activity, inhibitor).
With COC(=O)NC(C(=O)NN(Cc1ccc(Br)cc1)CC(O)(Cc1ccccc1)C(=O)NC1CCOC1)C(C)(C)C (stereo not drawn) the Ki was 0.11 µM (gag-pol protease; inhibitor).
With COc1cc2c(cc1OC)CN(CCCCn1ccc3cc(OCC[18F])ccc31)C2 the Ki was 0.00327 ± 0.00019 µM (Tmem97 (Rattus norvegicus, UniProt Q5U3Y7); binding).
The Ki of O=C(c1ccc(Cl)cc1)N(Cc1ccccc1)C1CCCCC1 is reported as 0.148 µM (RAGE; inhibitor; together with: HMGB1 ligand).
The Ki of O=C(O)c1cn(CB(O)O)nn1 is reported as 6.1 µM and 6.11 µM (ADC-7 β-lactamase; inhibitor).
The Ki of O=C(Cn1cc(CNC(=O)c2c3ccccc3nc3ccccc23)nn1)Nc1cccc(Br)c1 is reported as 78 µM (MAL12 (Saccharomyces cerevisiae S288c, UniProt P53341); inhibitor).
For CC(C)(CCCCCC(O)CCCCCC(C)(C)C(=O)SCCNC(=O)CCNC(=O)C(O)C(C)(C)COP(=O)(O)OP(=O)(O)OCC1OC(n2cnc3c(N)ncnc32)C(O)C1OP(=O)(O)O)C(=O)O (stereo not drawn), the Ki was 2 µM (ATP citrate lyase).
With COc1ccc(C(=O)Cc2nsc(Nc3ccc(S(N)(=O)=O)cc3)n2)cc1 the Ki was 0.0864 µM (human carbonic anhydrase IX; inhibitor).
O=C(/C=C/Nc1ccccc1)c1cc2ccccc2oc1=O has a Ki of 0.0939 µM (CA9 (Homo sapiens, UniProt Q16790); inhibitor).
O=c1[nH]c(O)nc2c(CN[C@H](CO)CCP(=O)(O)O)c[nH]c12 has a Ki of 8 ± 0.5 µM (Plasmodium falciparum HGXPRT; inhibitor).
For Nc1c(SC[C@H](O)[C@H](O)[C@H](O)CO)[nH]c(=O)[nH]c1=O, the Ki was 2.6 ± 0.2 µM (Bacillus subtilis lumazine synthase; inhibitor; recombinant β60 capsid; pH 7.0, Tris·HCl buffer, together with: 2 constant, 1 varied).
Cc1cc(N)nc(C[C@@H]2CNC[C@@H]2OCCNCCc2cccc(F)c2)c1 has a Ki of 0.07 µM (Nitric oxide synthase 1 (Homo sapiens, UniProt P29475)).
For CNc1ccc(/C=C/c2ccc(O)cc2)cc1, the Ki was 0.006 µM (amyloid beta fibrils; binding; in vitro generated fibrils).
The Ki of Nc1nc(N)c2c(n1)[nH]c1ccc(O)cc12 is reported as 83 µM (Pteridine reductase (PTR1, Trypanosoma brucei brucei, UniProt O76290)).
The Ki of O=c1[nH]cnc2c(CNCC(O)CP(=O)(O)O)c[nH]c12 (racemic) is reported as 0.009 ± 0.0001 µM (Plasmodium falciparum HGXPRT; inhibitor).
NS(=O)(=O)c1ccc(CCNC(=O)CSc2nc3ccc(I)cc3c(=O)n2Cc2ccccc2)cc1 gave a Ki of 0.0164 to 0.0242 µM (carbonic anhydrase IX, human).
O=c1[nH]c(SC[C@H](O)[C@H](O)[C@H](O)CO)c([N+](=O)[O-])c(=O)[nH]1 has a Ki of 2 ± 0.2 µM (6,7-dimethyl-8-ribityllumazine synthase (rib4, Schizosaccharomyces pombe, UniProt Q9UUB1); inhibitor; pH 7.0).
For CCCCOC(=O)NS(=O)(=O)c1sc(CC(C)C)cc1-c1cccc(CN(Cc2cccs2)C(C)=O)c1, the Ki was 0.0022 µM (angiotensin II type 2 receptor, pig; uterus membranes).
CNC(=O)C(Cc1ccccc1)NC(=O)C(O)(Cc1ccccc1)CN(Cc1ccc(Br)cc1)NC(=O)C(NC(=O)OC)C(C)(C)C (stereo not drawn) gave a Ki of 0.86 µM (gag-pol protease; inhibitor).
The Ki of COCCOc1cc2ncnc(Nc3cccc(-c4cn(Cc5ccc(C(=O)Nc6cccc(S(N)(=O)=O)c6)cc5)nn4)c3)c2cc1OCCOC is reported as 0.0436 µM (Helicobacter pylori alpha-carbonic anhydrase; inhibitor, stopped-flow CO2 hydration).
O=C(/C=C/c1ccsc1)c1cc2ccccc2oc1=O gave a Ki of > 30 µM (adenosine A2A receptor (human)).
The Ki of CN(Cc1c[nH]c2c(=O)[nH]cnc12)[C@H](CO)CCP(=O)(O)O is reported as 0.11 ± 0.03 µM (Plasmodium falciparum HGXPRT; inhibitor).
With COc1cc2c(cc1OC)CN(CCCCn1ccc3ccc(OCCF)cc31)C2 the Ki was 0.376 ± 0.351 µM (SIGMAR1 (Homo sapiens, UniProt Q99720); binding).
With C/C(=N\NC(=O)CSc1nc2ccccc2c(=O)n1CCc1ccc(S(N)(=O)=O)cc1)c1ccccc1 the Ki was 0.124 µM (CA1 (Homo sapiens, UniProt P00915); enzyme activity, inhibitor).
For C=CC(=O)N1CCC[C@@H](n2nc(-c3ccc4ccccc4c3)c3c(N)ncnc32)C1, the Ki was 0.0016 ± 0.0004 µM (EGFR (Homo sapiens, UniProt P00533, L858R)).
With CC[C@H](C)[C@H](NC(=O)[C@@H]1CSSC[C@H](NC(=O)[C@H](Cc2ccc(O)cc2)NC(=O)CN)C(=O)N[C@@H](CO)C(=O)N[C@@H](CCCNC(=N)N)C(=O)N[C@@H](CO)C(=O)N[C@@H](Cc2ccc(O)cc2)C(=O)N2CCC[C@H]2C(=O)N2CCC[C@H]2C(=O)N[C@@H](C(C)C)C(=O)N1)C(=O)N1CCC[C@H]1C(=O)N[C@@H](CC(=O)O)C(=O)O the Ki was 0.18 µM (MASP-2; inhibitor).
COCCOc1cc2ncnc(Nc3cccc(-c4cn(Cc5ccc(C(=O)Nc6ccc(S(N)(=O)=O)cc6)cc5)nn4)c3)c2cc1OCCOC gave a Ki of 0.048 µM (Helicobacter pylori alpha-carbonic anhydrase; inhibitor, stopped-flow CO2 hydration).
With CCN(CC)c1ncnc2c1ncn2[C@@H]1O[C@H](COP(=O)(O)OP(=O)(O)C(Br)(Br)P(=O)(O)O)[C@@H](O)[C@H]1O the Ki was 0.451 µM (CD73).
The Ki of CCC(=O)NCCNC(=O)N=C(N)NCCC[C@@H](NC(=O)C(c1ccccc1)c1ccccc1)C(=O)NCc1ccc(O)cc1 is reported as > 3 µM (NPFF2R; binding).
The Ki of COc1cc2nc(SC(C)C(=O)NCCc3ccc(S(N)(=O)=O)cc3)n(Cc3ccccc3)c(=O)c2cc1OC (stereo not drawn) is reported as 0.0052 to 0.0089 µM (carbonic anhydrase XII, human).
The Ki of O=c1[nH]cnc2c(CN[C@@H](CO)CCP(=O)(O)O)c[nH]c12 is reported as 0.5 ± 0.03 µM (Trypanosoma cruzi HGPRT; inhibitor).

A few entries again:
The Ki of CCC(=O)NCCNC(=O)N=C(N)NCCC[C@@H](NC(=O)C(c1ccccc1)c1ccccc1)C(=O)NCc1ccc(O)cc1 is reported as > 3 µM (NPFF2R; binding).
O=C(/C=C/Nc1ccccc1)c1cc2ccccc2oc1=O has a Ki of 0.0939 µM (CA9 (Homo sapiens, UniProt Q16790); inhibitor).
With CCN(CC)c1ncnc2c1ncn2[C@@H]1O[C@H](COP(=O)(O)OP(=O)(O)C(Br)(Br)P(=O)(O)O)[C@@H](O)[C@H]1O the Ki was 0.451 µM (CD73).
COc1cc2c(cc1OC)[C@@H]1C[C@H](O)[C@@H](CC(C)C)CN1CC2 gave a Ki of 0.058 µg/mL (dopamine D2 receptor; binding).
